Measurements gathered from unrelated publications.
Each numbered part is a random draw from the data of one study; scales do not carry over between parts. Substitutions count along the parent as printed.

Sample 1
Target: Interferon regulatory factor 3, full length, phosphomimetic (IRF3, Homo sapiens, UniProt Q14653, residues 1-427, S386D/S396D/S398D/S402D/T404D/S405D)
Technique: protein-binding microarray
Molecule type: double-stranded DNA, one strand shown
Matrix: in vitro
Concentration: 2540 nM top
Setting: 60-bp whole probe
Added: salmon DNA 0.4 mg/ml
Reference: random background probes
Reading: higher = stronger binding
Endpoint: fitted relative affinity
All sequences stand within: GCCTAGCAC … GTCTTGATTCGCTTGACGCTGCTG
Construct (chain): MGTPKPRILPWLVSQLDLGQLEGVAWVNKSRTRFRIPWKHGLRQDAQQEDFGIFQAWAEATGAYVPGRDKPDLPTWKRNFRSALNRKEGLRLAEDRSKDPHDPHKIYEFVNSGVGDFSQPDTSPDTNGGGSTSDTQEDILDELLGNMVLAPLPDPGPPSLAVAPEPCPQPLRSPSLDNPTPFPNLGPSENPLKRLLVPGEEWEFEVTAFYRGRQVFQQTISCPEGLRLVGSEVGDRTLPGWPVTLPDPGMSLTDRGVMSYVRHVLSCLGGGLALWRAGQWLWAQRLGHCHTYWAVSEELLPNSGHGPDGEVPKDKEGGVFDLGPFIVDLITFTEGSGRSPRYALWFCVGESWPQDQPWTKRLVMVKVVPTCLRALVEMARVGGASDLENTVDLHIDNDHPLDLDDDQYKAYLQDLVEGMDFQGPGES
GACGATCTCAGACTGCAGACGTGCTAG: 0.253 z-score
ACAGCAAGCAGGGCCAGCCCGTGCTAG: -1.21 z-score
ATAGATATCGGGACTGGATTAGTGCTA: -0.0562 z-score
GACTATATCAGTCTCGAGACGTGCTAG: 0.987 z-score
TTAGATCTCCGTATCGATTAGTGCTAG: 1.36 z-score
GACGATATCTGGTTTCGAGACGTGCTA: 1.61 z-score
TTAGGTTTCGGTACCGGTTAGTGCTAG: 7.48 z-score
TTAGGGTTCCTTTCCCTTTAGTGCTAG: 6.2 z-score

Sample 2
Target: CCNF, cyclin fold, Cln2 fusion (human)
Technique: yeast growth competition, sequencing
Matrix: yeast
Setting: strong parent motif
Reference: not given
Reading: higher = stronger binding
Endpoint: normalised enrichment score
Starting sequence: BRCA2 docking peptide (human); PSIKRNLLNEFDR; partner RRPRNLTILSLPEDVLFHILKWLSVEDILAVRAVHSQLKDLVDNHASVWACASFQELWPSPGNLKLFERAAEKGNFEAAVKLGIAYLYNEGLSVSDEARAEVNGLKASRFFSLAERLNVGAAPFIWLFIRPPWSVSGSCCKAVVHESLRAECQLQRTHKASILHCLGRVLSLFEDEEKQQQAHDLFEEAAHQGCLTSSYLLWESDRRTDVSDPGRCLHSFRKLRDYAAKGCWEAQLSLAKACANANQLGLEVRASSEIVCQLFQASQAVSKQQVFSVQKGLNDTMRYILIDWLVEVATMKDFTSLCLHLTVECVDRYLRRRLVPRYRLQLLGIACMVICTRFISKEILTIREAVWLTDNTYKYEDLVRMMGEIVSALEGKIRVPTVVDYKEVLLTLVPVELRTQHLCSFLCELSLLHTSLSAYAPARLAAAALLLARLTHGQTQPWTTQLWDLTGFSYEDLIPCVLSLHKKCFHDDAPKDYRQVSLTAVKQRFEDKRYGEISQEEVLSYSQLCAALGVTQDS
D12N: 5
N9F: 3.97
P1E: 3.07
D12G: 1.56
I3N: 0.409

Sample 3
Target: Prothrombin, mature alpha-thrombin (F2, Homo sapiens, UniProt P00734)
Technique: aptamer microarray, sandwich
Molecule type: DNA with 2'F-ANA
Matrix: in vitro
Concentration: 200 nM
Setting: whole 15-mer aptamer, many near background
Added: Cy3 exosite-II aptamer, 400 nM
Reading: higher = stronger binding
Endpoint: mean fluorescence intensity
Strand: GGTTGGTGTGGTTGG
2'F-ANA at 2 5 7 9 11: 66.9 a.u.
2'F-ANA at 2 3 4 5 7 10 11 15: 57.3 a.u.
2'F-ANA at 1 3 5 6 7 8 9 10 11 12 13 14 15: 57.7 a.u.
2'F-ANA at 2 4 6 7 9 13 15: 139 a.u.
2'F-ANA at 1 4 5 8 11 13 14: 48.6 a.u.
2'F-ANA at 2 3 4 6 8 9 11 13 15: 314 a.u.
2'F-ANA at 1 2 3 8 9 11 14 15: 93.5 a.u.
2'F-ANA at 1 2 3 4 6 9 12: 305 a.u.

Single results of other studies
PhoQ, residues 284 288 289 292 302 303 AGGCYF  fold induction (PhoP, residues 12 14 15 18 19 GQALL (Escherichia coli, UniProt P23836); Sort-seq, measured: YFP reporter; E. coli; PhoQ-PhoP variant library, added: 10 µM Mg2+; reference: high Mg2+ state, higher = stronger signaling): 15.6
